Measurements gathered from unrelated publications.
Each line is one published result; not all experiments were run side by side. Several values in a cell are separate wells, animals, samples, runs or records.
Target: Serine/threonine-protein kinase pim-2 (PIM2, Homo sapiens, UniProt Q9P1W9)

SMILES	assay	setting	how to read	endpoint	value
CNC(=O)C[C@H](Cc1ccc(C#N)cc1)NC(=O)c1cc(-c2ccc(CN[C@H](C)c3ccc(C)cc3)o2)ccc1Cl	enzyme activity, inhibitor	1 µM		activity vs control	83%
Cc1cccc(-c2ccc3nc(NC(=O)C4CCOCC4)nn3c2)c1	enzyme activity, Dundee kinase panel	10 µM		remaining activity	100%
C=CC(=O)Nc1cccc(-c2cnc3[nH]cc(C(=O)NC(C)(C)C)c3n2)c1	kinase activity	0.1 µM		inhibition	1% and 0%
COc1c(Cl)cccc1Nc1c(-c2ccncc2C#C[C@@]2(C)CCCN2C(=O)/C=C/CN(C)C)[nH]c2c1C(=O)NCC2	binding, competition with immobilised ligand	3 µM		remaining binding	100%
CCn1cc(C(=O)O)c(=O)c2c(N)c(F)c(NC3CCCCC3)cc21	kinase activity	0.1 µM, with: ATP at Km		inhibition	15.6%
CN1CCN(Cc2ccc(-c3ccc(CO[C@H]4CCC[C@@H]4NC(=O)c4cc(-c5cnn(C)c5)cnc4N)cc3)cc2)CC1	enzyme activity, inhibitor	0.1 µM		inhibition	-19%
CN1CCN(Cc2ccc(NC(=O)c3cccc(C#Cc4cnc(N)c5ncccc45)c3)cc2C(F)(F)F)CC1	cell-free assay, competition with immobilised ligand	0.5 µM		remaining binding	100%
Cc1cccc(O[C@H]2CCC[C@@H](C(C)CNCc3ccncc3)C2)c1 (relative stereo)	enzyme activity, inhibitor	10 µM		inhibition	1%
COc1cc(Nc2nccc(-c3cnn4nc(OC)ccc34)n2)cc(C(F)(F)F)c1	binding, competition with immobilised ligand	1 µM		remaining binding	91%
COc1ccc(NC(=O)Nc2ccc3c(c2)C(=O)N(C(C)CO)CC(C)C(CN(C)Cc2ccc4c(c2)OCO4)O3)cc1 (centres unmarked)	binding, competition with immobilised ligand	10 µM		remaining binding	85%
Cc1ccc(C)c(-c2ccc3nc(NC(=O)C4CCCCC4)nn3c2)c1	enzyme activity, Dundee kinase panel	10 µM		remaining activity	91%
COc1ccc(C(=O)/C=C/c2ccccc2-c2c[nH]c3ccc(C#N)cc23)c(O)c1	enzyme activity, inhibitor	20 µM		inhibition	24%
Cc1ccc(-c2c(/C=C(\C#N)C(=O)NC(C)C)n(CCCO)c3ncnc(N)c23)cc1	cell-free assay, competition with immobilised ligand	1 µM		remaining binding	95%
CNS(=O)(=O)Nc1nccc(Cc2c(C)c3ccc(Oc4ncccc4F)cc3oc2=O)c1F	binding, competition with immobilised ligand	10 µM		remaining binding	84%
Nc1ncc2c(n1)-c1c([nH]c3ccc(C4=CCOCC4)cc13)CCC2	binding, competition with immobilised ligand	1 µM		remaining binding	100%
O=C=[N][Ru-4]123([n]4c5ccc(O)cc5c5c6c(c7cc(F)c[n+]1c7c54)C(=O)NC6=O)[S+]1CC[S+]2CC[S+]3CC1 (centres unmarked)	enzyme activity	100 nM, human enzyme, with: 10 µM ATP	baseline: untreated	remaining activity	24%
NC(=O)C[C@H]1CCc2sc3ncnc(O[C@H]4CC[C@H](N5CCOCC5)CC4)c3c21	enzyme activity, inhibitor	10 µM		inhibition	-4%
Nc1nc(Nc2ccccc2)sc1C(=O)c1ccccc1	enzyme activity, inhibitor	10 µM		remaining activity	80%
CCN1CCN(Cc2ccc(C(=O)Nc3ccc(C)c(NCc4cnc5[nH]ccc5c4OC)c3)cc2C(F)(F)F)CC1	binding, competition with immobilised ligand	1 µM		remaining binding	90%
Nc1ncc(-c2cc(-c3cnn(CC(F)(F)F)c3)ncc2F)nc1C(=O)NC1CNCC(F)C1 (centres unmarked)	enzyme activity	1 µM	baseline: DMSO control	remaining activity	102%

Repeated from above:
SMILES	assay	setting	how to read	endpoint	value
CCn1cc(C(=O)O)c(=O)c2c(N)c(F)c(NC3CCCCC3)cc21	kinase activity	0.1 µM, with: ATP at Km		inhibition	15.6%
